Literature values that unrelated publications cite.
Compare with care: the assays were run in different laboratories. Numbers after ± are the reported error.

Compound | cell line | observed | technique | time | setting | IC50
CCC1=C(O)c2c(oc(-c3cccc4ccccc34)cc2=O)C(CC)(CC)C1=O | KB-VIN (P-gp-overexpressing MDR) | cell growth | SRB |  |  | 0.77 µM
CC1=C(Cn2c3ccc(Br)c(=O)c-3nc3ccccc32)CCC(C)(C)C1 | HCT-116 | cytotoxicity |  |  |  | 0.049 µM
CC(C)C[C@@H](NC(=O)[C@H](C)NC(=O)CNC(=O)[C@@H](NC=O)C(C)C)C(=O)N[C@@H](C)C(=O)N[C@@H](C(=O)N[C@H](C(=O)N[C@@H](C(=O)N[C@@H](Cc1c[nH]c2ccccc12)C(=O)N[C@H](CC(C)C)C(=O)N[C@@H](Cc1c[nH]c2ccccc12)C(=O)N[C@H](CC(C)C)C(=O)N[C@@H](Cc1c[nH]c2ccccc12)C(=O)N[C@H](CC(C)C)C(=O)N[C@@H](Cc1c[nH]c2ccccc12)C(=O)NCCO)C(C)C)C(C)C)C(C)C | P388 | cytotoxicity |  |  |  | 0.0058 µM
CCOC(=O)C1=C(NC2CCCCC2)Oc2c(c(C)nc3c(C#N)c(C)nn23)C1C(=O)OCC (stereo not shown) | MCF7 | cytotoxicity |  |  |  | 19.7 ± 0.89 µM
O=C1/C(=C/c2ccc(B(O)O)cc2)CC/C1=C\c1ccc(B(O)O)cc1 | HER2-expressing breast cancer cells | cytotoxicity |  |  |  | > 200 µM
O=C(/C=C/c1ccc(O)c(O)c1)NCCc1ccc(O)cc1 | RAW264.7 | cytotoxicity |  | 24 h |  | > 100 µM
CC1=C(Cn2c3cccc(=O)c-3nc3ccccc32)CCC(C)(C)C1 | P388 mouse leukaemia | cytotoxicity |  |  |  | 0.09 µg/mL
O=C(/C=C/c1ccc(O)c(O)c1)NCCc1ccc(O)c(O)c1 | RAW264.7 | cytotoxicity |  | 24 h |  | > 100 µM
Fc1cc2nc3c4cccnc4c4ncccc4c3nc2cc1F.[Cl-].[Cl-].[Ru+2].c1ccncc1.c1ccncc1.c1ccncc1.c1ccncc1 | L-O2 | cytotoxicity |  |  | dark | > 200 µM
COc1cc(/C=C/C(=O)NCCc2ccc(O)c(OC)c2)ccc1O | RAW264.7 | cytotoxicity |  | 24 h |  | > 100 µM
CCC1=C(O)c2c(oc(-c3ccc4cc(OC)ccc4c3)cc2=O)C(CC)(CC)C1=O | KB-VIN (P-gp-overexpressing MDR) | cell growth | SRB |  |  | 9.57 µM
COc1cc(/C=C/C(=O)NCCc2ccccc2)ccc1O | RAW264.7 | cytotoxicity |  | 24 h |  | > 100 µM
O=C(Cn1cc(Cn2c(=O)c(Cc3ccccc3)nc3ccccc32)nn1)N/N=C/c1cccnc1 | HCT-116 | cytotoxicity |  |  |  | 2.2 µM

Excerpt of the above:
Compound | cell line | observed | technique | time | setting | IC50
O=C(/C=C/c1ccc(O)c(O)c1)NCCc1ccc(O)cc1 | RAW264.7 | cytotoxicity |  | 24 h |  | > 100 µM
COc1cc(/C=C/C(=O)NCCc2ccccc2)ccc1O | RAW264.7 | cytotoxicity |  | 24 h |  | > 100 µM
